Measurements from different studies.
“And” joins repeats or separate records; there may be more than shown. ± gives the spread as reported.
rep main protease: Replicase polyprotein 1ab, main protease (rep, Severe acute respiratory syndrome coronavirus 2, UniProt P0DTD1)

| Structure (SMILES) | tested on | assay | system | setting | measurement | value |
| --- | --- | --- | --- | --- | --- | --- |
| Cc1nn(-c2ccc(Cl)cc2)c2c1C(c1ccc(F)cc1F)C(C#N)=C(N)O2 (stereo not shown) | SARS-CoV-2 | viral replication | Vero | 10 µM | inhibition | 48.5% |
| COc1cc(/C=C2\CCCN([C@@H](C)c3ccc(F)cc3)C2=O)ccc1-n1cnc(C)c1 | rep main protease | viral replication, Gluc reporter | SARS-CoV-2 | 20 µM | inhibition | -2.73% |
| CCOC(=O)[C@H]1O[C@@H]1C(=O)N[C@@H](CC(C)C)C(=O)NCCC(C)C | SARS-CoV-2 |  |  | 15 µM | inhibition | 40.7% |
| CC(C)(C)[C@H](NS(=O)(=O)C1CC1)C(=O)N1C[C@H]2[C@@H]([C@H]1C(=O)N[C@H](C#N)C[C@@H]1CCNC1=O)C2(C)C | SARS-CoV-2 | viral replication, qRT-PCR viral RNA | Vero E6 | 10 µM | inhibition | 80% |
| Cc1ccc(C(=O)N2CC3(CCC3)C[C@H]2CNC(=O)c2cncc3[nH]cnc23)cc1O | rep main protease | enzyme activity, inhibitor |  | 5 µM, run 2 | inhibition | 16.1% |
| CC[C@H](C)[C@H](NC(=O)[C@H](CC(C)C)NC(=O)[C@H](Cc1c[nH]c2ccccc12)NC(=O)[C@H](CCC(N)=O)NC(=O)[C@@H](NC(=O)[C@H](Cc1ccccc1)NC(=O)[C@H](C)NC(=O)[C@H](CCCCNC(=O)COCCOCCNC(=O)COCCOCCNC(=O)CC[C@H](NC(=O)CCCCCCCCCCCCCCCCCCC(=O)O)C(=O)O)NC(=O)[C@H](CCC(N)=O)NC(=O)[C@H](C)NC(=O)[C@@H](NC(=O)[C@H](CCCCN)NC(=O)[C@H](CC(=O)O)NC(=O)[C@H](CC(C)C)NC(=O)C(C)(C)NC(=O)[C@@H](NC(=O)[C@H](CO)NC(=O)[C@H](Cc1ccc(O)cc1)NC(=O)[C@H](CC(=O)O)NC(=O)[C@H](CO)NC(=O)[C@@H](NC(=O)[C@H](Cc1ccccc1)NC(=O)[C@@H](NC(=O)CNC(=O)[C@H](CCC(=O)O)NC(=O)C(C)(C)NC(=O)[C@@H](N)Cc1ccc(O)cc1)[C@@H](C)O)[C@@H](C)O)[C@@H](C)CC)[C@@H](C)CC)C(C)C)C(=O)N[C@@H](C)C(=O)NCC(=O)NCC(=O)N1CCC[C@H]1C(=O)N[C@@H](CO)C(=O)N[C@@H](CO)C(=O)NCC(=O)N[C@@H](C)C(=O)N1CCC[C@H]1C(=O)N1CCC[C@H]1C(=O)N1CCC[C@H]1C(=O)N[C@@H](CO)C(N)=O |  |  | healthy subjects, single ascending dose | 0.25 mg, day 29 | serum amylase | 70.3 ± 11.5 U/L |
| O=C(CSc1nc2ccccc2c(=O)[nH]1)NNC(=O)c1ccccc1Br | SARS-CoV-2 | virucidal activity, plaque reduction |  | 125 µM | inhibition | 47.8 ± 5.1% |
| CC(CCc1ccc(C(N)=O)cc1)N(C[C@H](O)c1ccccc1)C[C@H](O)c1ccccc1 (stereo partly shown) | SARS-CoV-2 | viral replication | Vero E6, USA-WA1/2020 | 2.5 µM | inhibition | 45.6% |
| O=C(/C=C/c1ccc(O)c(O)c1/C=C/c1ccc(O)c(O)c1)O[C@H](Cc1ccc(O)c(O)c1)C(=O)O | SARS-CoV-2 | cytopathic effect | Vero E6 | 1.562 µM, first run | inhibition | 0% |
| CC(=O)N1CCN(CCOc2ccc(C3CCN(C4=Nn5c(nnc5C(F)(F)F)CC4)CC3)cc2)CC1 | SARS-CoV-2 | viral replication | Vero E6, USA-WA1/2020 | 2.5 µM | inhibition | 49.8% |
| O=C(CSc1nc2c(c(=O)[nH]1)CCCC2)NNC(=O)c1ccc(Cl)cc1 | SARS-CoV-2 | virucidal activity, plaque reduction |  | 31.25 µM | inhibition | 15.6 ± 13.9% |
| CC(C)=CCc1c(O)ccc(C(=O)/C=C/c2ccc(O)cc2)c1O | SARS-CoV-2 | viral cytopathic effect | Vero E6 | 100 µM | inhibition | 90% |
| CCN(CC)CCCNc1ccnc2cc(Cl)ccc12 | SARS-CoV-2 | viral replication | Vero E6, USA-WA1/2020 | 2.5 µM | inhibition | 53.3% |
| COc1cc([C@H]2OC[C@]3(O)[C@@H](c4ccc(O)c(OC)c4)OC[C@H]23)ccc1O | SARS-CoV-2 | viral replication, mNeonGreen reporter virus |  | 50 µM | inhibition | 81.6% |
| O=C(CSc1nc2c(c(=O)[nH]1)CCCC2)NNC(=O)c1ccc([N+](=O)[O-])cc1 | SARS-CoV-2 | viral replication, plaque reduction |  | 125 µM | inhibition | 43.3 ± 3.35% |
| Cn1cnc(Cn2c(=O)[nH]/c(=N\c3cc4cn(C)nc4cc3Cl)n(Cc3cc(F)c(F)cc3F)c2=O)n1 |  |  | human, normal renal function | oral, 375 mg | any TEAE, Mild severity | 0% |
| Cn1cnc(Cn2c(=O)[nH]/c(=N\c3cc4cn(C)nc4cc3Cl)n(Cc3cc(F)c(F)cc3F)c2=O)n1 | SARS-CoV-2 | viral replication | Vero C1008, wild type | 0.01715 µM | inhibition | 0% |
| C=C[C@@H]1C[C@]1(NC(=O)[C@@H]1C[C@@H](Oc2ncc(OC)c3ccc(Cl)cc23)CN1C(=O)[C@@H](NC(=O)OC(C)(C)C)C(C)(C)C)C(=O)NS(=O)(=O)C1CC1 | rep main protease | reporter gene (Gaussia luciferase), inhibitor |  | 20 µM | inhibition | 2.47% |
| O=C(Nc1cccnc1)c1cc(-c2ccnc(F)c2)ccc1OCc1ccccc1 | SARS-CoV-2 | viral replication | Vero E6, USA-WA1/2020 | 2.5 µM | inhibition | 42.1% |
| Nc1ncnc2c([C@@H]3N[C@H](CO)[C@@H](O)[C@H]3O)c[nH]c12 | Junin virus | viral replication | HeLa, Romero | 100 µM | inhibition | 85.6% |
| Cc1nn(-c2ccc(Cl)cc2)c2c1C(c1ccc(I)cc1)C(C#N)=C(N)O2 (stereo not shown) | SARS-CoV-2 | viral replication | Vero | 1 µM | inhibition | 7.42% |
| CCN(CC)CCO[C@H]1CC[C@@]2(C)C(=CC[C@@H]3[C@@H]2CC[C@]2(C)OCC[C@@H]32)C1 | SARS-CoV-2 | viral replication | Vero E6, USA-WA1/2020 | 2.5 µM | inhibition | 40.6% |
| COc1ccc(C[C@@H]2c3cc(Oc4cc(C[C@@H]5c6cc(O)c(OC)cc6CCN5C)ccc4O)c(OC)cc3CCN2C)cc1 | SARS-CoV-2 | cytopathic effect | Vero E6 | 6.25 µM, first run | inhibition | 0% |
| CCNC/C=C\CNCCCCNCCCCNC/C=C\CNCC | SARS-CoV-2 | viral replication | Vero C1008, USA-WA1/2020 | 2.5 µM, reconfirmation | inhibition | 81.8% |
| CC(C)(C)[C@H](NC(=O)C(F)(F)F)C(=O)N1C[C@H]2[C@@H]([C@H]1C(=O)N[C@H](C#N)C[C@@H]1CCNC1=O)C2(C)C | SARS-CoV-2 | viral replication | Vero E6 | 1 µM | inhibition | 88.1% and 98.8% and 106% and 104% and 88.5% and 119% |

For quick reference, copied from above:
| Structure (SMILES) | tested on | assay | system | setting | measurement | value |
| --- | --- | --- | --- | --- | --- | --- |
| Nc1ncnc2c([C@@H]3N[C@H](CO)[C@@H](O)[C@H]3O)c[nH]c12 | Junin virus | viral replication | HeLa, Romero | 100 µM | inhibition | 85.6% |
| Cc1nn(-c2ccc(Cl)cc2)c2c1C(c1ccc(I)cc1)C(C#N)=C(N)O2 (stereo not shown) | SARS-CoV-2 | viral replication | Vero | 1 µM | inhibition | 7.42% |
| CCN(CC)CCO[C@H]1CC[C@@]2(C)C(=CC[C@@H]3[C@@H]2CC[C@]2(C)OCC[C@@H]32)C1 | SARS-CoV-2 | viral replication | Vero E6, USA-WA1/2020 | 2.5 µM | inhibition | 40.6% |
